Assay results of several laboratories.
Lines come from different studies, so protocols differ. Numbers after ± are the reported error.

For `CN1CCN(C2(CNC3CCN(c4cccc(-c5cc6cc(F)ccc6[nH]5)c4)CC3)CCC2)CC1`, the TGI was 3.51 µM (A549).
`Nc1nc(Cl)nc2c1ncn2[C@H]1C[C@H](O)[C@@H](CO)O1` gave a maximum inhibition of 12.4% (human coronavirus OC43; virus-induced cell killing; MRC-5; screen).
`Cc1cc(NS(=O)(=O)c2ccc(NC(=O)/C(C#N)=C/c3ccc(N4CCCCC4)cc3)cc2)no1` gave a selectivity index of greater than 5.49 (A549; cytotoxicity, MTT; baseline: HSF over A549 IC50).
`N.N.[Cl][Pt][Cl]` gave an IC50 of 15.8 ± 4.8 µM (A549; cell growth, MTT; 48 h, LED light photolysis 1 h).
`COC(=O)C1CCN(C(=O)c2ccc(N(C)Cc3cnc4nc(N)nc(N)c4n3)cc2)CC1` has a cell growth of 161 ± 3.62% (A549; CellTiter-Glo; 10 µM; 100 none, 0 cytostatic, -100 cytotoxic).
`Nc1ncc(-c2nc(N3CCOCC3)nc(N3CCOCC3)n2)c(C(F)F)n1` gave a GI50 of 0.102 µM (A549; 72 h).
With `Cn1cncc1[C@@](N)(c1ccc(Cl)cc1)c1ccc2c(c1)c(-c1cccc(Cl)c1)cc(=O)n2C` the maximum inhibition was 0% (human coronavirus OC43; virus-induced cell killing; MRC-5; maximum over 10 doses).
`O=[N+]([O-])c1nccn1CC(O)CNCCBr` (stereo not drawn) has an IC50 of greater than 130 µM (A549; cell viability, SRB; 4 h oxic then 120 h oxic).
`C#Cc1cccc(Nc2ncnc3cc(OCCOC)c(OCCOC)cc23)c1` gave a sublethal dose of 2 µM (A549; MTT).
`O=C(CCc1ccc(O)cc1)c1c(O)cc(O)cc1O` gave a 2-NBDG uptake of 67% (A549; fluorescence imaging; 30 µM, with: 50 µM 2-NBDG, 15 min; baseline: DMSO).
`CC(C)N1CCC(NC2CCN(c3cccc(-c4cc5cc(F)ccc5[nH]4)c3)CC2)CC1` gave a TGI of 3.52 µM (A549).
The TGI of `COc1c(CCC[P+](c2ccccc2)(c2ccccc2)c2ccccc2)cc2c(c1OC)OCO2.[I-]` is reported as -4.42 log M (A549; NCI60 SRB).
With `CC(C)C[C@H](NC(=O)[C@H](Cc1c[nH]c2ccccc12)NC(=O)[C@@H](NC(=O)[C@H](CC(C)C)NC(=O)[C@H](Cc1ccccc1)NC(=O)[C@@H](NC(=O)[C@H](CCCCN)NC(=O)[C@H](CCCNC(=N)N)NC(=O)[C@H](CCCCN)NC(=O)[C@H](CCCCN)NC(=O)[C@H](CCCCN)NC(=O)[C@@H]1CCCN1C(=S)Nc1ccc2c(c1)C(=O)OC21c2ccc(O)cc2Oc2cc(O)ccc21)C(C)C)[C@@H](C)O)C(=O)O` the IC50 was 45 µM (A549; CCK-8; liposome-delivered).
The TGI of `COc1cc(CCC[P+](c2ccccc2)(c2ccccc2)c2ccccc2)c(OC)c2c1OCO2.[I-]` is reported as -4.16 log M (A549; NCI60 SRB).
`O=C1[O][Pt]2([NH][C@@H]3CCCC[C@H]3[NH]2)[O]C1=O` has an IC50 of 0.9 ± 0.13 µM (A549; cytotoxicity, MTT; 72 h).

For quick reference, copied from above:
`N.N.[Cl][Pt][Cl]` gave an IC50 of 15.8 ± 4.8 µM (A549; cell growth, MTT; 48 h, LED light photolysis 1 h).
`Cc1cc(NS(=O)(=O)c2ccc(NC(=O)/C(C#N)=C/c3ccc(N4CCCCC4)cc3)cc2)no1` gave a selectivity index of greater than 5.49 (A549; cytotoxicity, MTT; baseline: HSF over A549 IC50).
